Measurements from different studies.
± gives the spread as reported.
Organism: Klebsiella pneumoniae

SMILES	test	test system	conditions	MIC
CC[P+](CC)(CC)[Au-][S][C@@H]1O[C@H](COC(C)=O)[C@@H](O[C@@H]2O[C@H](COC(C)=O)[C@H](OC(C)=O)[C@H](OC(C)=O)[C@H]2OC(C)=O)[C@H](OC(C)=O)[C@H]1OC(C)=O		ATCC 700603		> 265 µM
CC[C@H](C)[C@@H]1NC(=O)[C@@H]2CSSC[C@@H]3NC(=O)[C@H](C(C)C)NC(=O)CNC(=O)CNC(=O)[C@H](CCCNC(=N)N)NC(=O)[C@H](CCCNC(=N)N)NC(=O)CNC(=O)[C@H](C(C)C)NC(=O)[C@@H]4CSSC[C@H](NC(=O)[C@H](CC(C)C)NC(=O)[C@H](CCCNC(=N)N)NC(=O)CNC(=O)CNC(=O)[C@H](CO)NC(=O)CNC(=O)[C@H](CO)NC(=O)CNC(=O)[C@@H]5CSSC[C@H](NC(=O)[C@H](CC(=O)O)NC(=O)[C@H](CO)NC(=O)[C@H](CC(=O)O)NC(=O)[C@H](CCCNC(=N)N)NC(=O)[C@H](CCCNC(=N)N)NC(=O)[C@H](CSSC[C@H](NC1=O)C(=O)N[C@@H](CCCNC(=N)N)C(=O)NCC(=O)N[C@@H](CC(N)=O)C(=O)NCC(=O)N[C@@H](Cc1ccc(O)cc1)C(=O)N5)NC(=O)[C@H](CCCNC(=N)N)NC(=O)[C@H](CCC(N)=O)NC(=O)[C@H](CC(C)C)NC(=O)[C@H]([C@@H](C)CC)NC(=O)[C@H](CCCCN)NC(=O)[C@@H]1CCCN1C3=O)C(=O)N1CCC[C@H]1C(=O)NCC(=O)N[C@@H](C)C(=O)N2)C(=O)N[C@@H](Cc1ccc(O)cc1)C(=O)N[C@H]1CSSC[C@H](NC(=O)[C@H](Cc2ccccc2)NC(=O)[C@H](CCCNC(=N)N)NC(=O)[C@H](CCCNC(=N)N)NC(=O)[C@H](CCCNC(=N)N)NC1=O)C(=O)N[C@@H](C(C)C)C(=O)N4		BAA1705, CAMHB		12.5 µM
CC(C)C[C@H](NC(=O)[C@H](CC(N)=O)NC(=O)[C@H](CCCNC(=N)N)NC(=O)[C@@H](CC(C)C)NC(=O)[C@H](Cc1ccccc1)NC(=O)[C@H](CC(=O)O)NC(=O)[C@H](CCCCN)NC(=O)[C@@H](CC(C)C)NC(=O)[C@H](CCCNC(=N)N)NC(=O)[C@H](CCC(N)=O)NC(=O)[C@@H](NC(=O)[C@@H](CC(C)C)NC(=O)[C@H](CCCNC(=N)N)NC(=O)[C@H](CCCCN)NC(=O)[C@H](Cc1ccc(-c2ccccc2)cc1)NC(=O)CN)C(C)C)C(=O)N[C@H](C(N)=O)C(C)C	broth microdilution	ATCC 13883		25 µM
CNC(C)C1CCC(N)C(OC2C(N)CC(N)C(OC3OCC(C)(O)C(NC)C3O)C2O)O1 (stereo not shown)		727 ESBL clinical isolate, TSB	18 h, 37 °C	32 µM
CC(C)C[C@H](NC(=O)[C@H](CC(N)=O)NC(=O)[C@H](CCCNC(=N)N)NC(=O)[C@@H](CC(C)C)NC(=O)[C@H](Cc1ccc(C(F)(F)F)cc1)NC(=O)[C@H](CC(=O)O)NC(=O)[C@H](CCCCN)NC(=O)[C@@H](CC(C)C)NC(=O)[C@H](CCCNC(=N)N)NC(=O)[C@H](CCC(N)=O)NC(=O)[C@@H](NC(=O)[C@@H](CC(C)C)NC(=O)[C@H](CCCNC(=N)N)NC(=O)[C@H](CCCCN)NC(=O)[C@H](Cc1ccc2ccccc2c1)NC(=O)CN)C(C)C)C(=O)N[C@H](C(N)=O)C(C)C	broth microdilution	ATCC 13883		12.5 µM
CC(C)C(O)C(NC(=O)[C@H](Cc1ccc(O)cc1)NC(=O)C(Cc1ccc(O)cc1)[N+](C)(C)C)C(=O)N[C@@H](C)C(=O)O (stereo partly shown)		ATCC 27736		> 100 µM
CC(=NNC(=N)N)c1nnn(-c2ccc(C#CC3(O)CCCCC3)cc2)c1C	microbial growth	ATCC13883		7.8 µg/mL
CCS(=O)(=O)[C@H]1[C@H](O)[C@@H](N)[C@@H](O[C@H]2[C@H](O[C@@H]3O[C@H](CO)[C@@H](O[C@H]4O[C@@H](CN)[C@@H](O)[C@H](O)[C@H]4N)[C@H]3O)[C@@H](O)[C@H](N)C[C@@H]2N)O[C@@H]1CO		AG215		> 128 µg/mL
CC(C)C[C@@H](NC(=O)[C@@H](CC(C)C)NC(=O)[C@@H](CCCCN)NC(=O)[C@@H](CCCCNC(=O)[C@@H](CC(C)C)NC(=O)[C@@H](CC(C)C)NC(=O)[C@@H](CCCCNC(=O)[C@@H](CC(C)C)NC(=O)[C@@H](CCCCN)NC(=O)[C@@H](CCCCNC(=O)[C@@H](CC(C)C)NC(=O)[C@H](N)CCCCN)NC(=O)[C@@H](CC(C)C)NC(=O)[C@H](N)CCCCN)NC(=O)[C@@H](CC(C)C)NC(=O)[C@@H](CCCCN)NC(=O)[C@@H](CCCCNC(=O)[C@@H](CC(C)C)NC(=O)[C@H](N)CCCCN)NC(=O)[C@@H](CC(C)C)NC(=O)[C@H](N)CCCCN)NC(=O)[C@@H](CC(C)C)NC(=O)[C@@H](CC(C)C)NC(=O)[C@@H](CCCCNC(=O)[C@@H](CC(C)C)NC(=O)[C@@H](CCCCN)NC(=O)[C@@H](CCCCNC(=O)[C@@H](CC(C)C)NC(=O)[C@H](N)CCCCN)NC(=O)[C@@H](CC(C)C)NC(=O)[C@H](N)CCCCN)NC(=O)[C@@H](CC(C)C)NC(=O)[C@@H](CCCCN)NC(=O)[C@@H](CCCCNC(=O)[C@@H](CC(C)C)NC(=O)[C@H](N)CCCCN)NC(=O)[C@@H](CC(C)C)NC(=O)[C@H](N)CCCCN)C(N)=O	broth microdilution	NCTC 418	37 °C	16 µg/mL
NC[C@@H]1O[C@H](O[C@H]2[C@@H](O)[C@H](O[C@@H]3[C@@H](O)[C@H](N)C[C@H](N)[C@H]3O[C@H]3O[C@H](CO)[C@@H](SCCF)[C@H](O)[C@H]3N)O[C@@H]2CO)[C@H](N)[C@@H](O)[C@@H]1O		AG215		4 µg/mL
CC[P+](CC)(CC)[Au-][S]c1ccc(SCC(=O)N[C@H]2[C@H](OC(C)=O)O[C@H](COC(C)=O)[C@@H](OC(C)=O)[C@@H]2OC(C)=O)cc1		ATCC 700603		> 303 µM
CO[C@@H](C(N)=O)[C@H](NC(=O)c1ccc(NC(=O)c2ccc([N+](=O)[O-])cc2)cc1)C(=O)Nc1ccc(C(=O)Nc2ccc(C(=O)Nc3ccc(C(=O)O)cc3)c(O)c2OC(C)C)cc1	microbial growth	DSM30104		> 64 µg/mL
CC(C)CCCCCCCCCCCCc1cc(O)cc(O)c1	microbial growth, broth dilution	ATCC10031		> 64 µg/mL
CCn1[c]([Au-]([Cl])([Cl])[Cl])[n+](CC)c2ccc(C(=O)OC)cc21	broth dilution	DSM 11678	20 h, 37 °C	24.9 ± 8.6 µM
CC1=NN(CNc2ccc(C(=O)O)c(O)c2)C(=O)/C1=N/Nn1c(-c2ccccc2)nc2ccccc2c1=O	microbial growth, broth dilution		24 h	12.2 µM
CC(=O)N1CCc2cc(S(=O)(=O)N3CCN(c4nnc(C(F)(F)F)s4)CC3)ccc21	broth microdilution	10031	22 h	> 64 µg/mL
CC[S+]([O-])C1C(CO)OC(OC2C(N)CC(N)C(O)C2OC2OC(CO)C(OC3OC(CN)C(O)C(O)C3N)C2O)C(N)C1O (mixture of isomers)		AG215		64 µg/mL
CCCCCCCCCC(=O)NCCCC[C@@H](NC(=O)[C@@H](CC(C)C)NC(=O)[C@@H](CCCCN)NC(=O)[C@@H](CCCCNC(=O)[C@@H](CC(C)C)NC(=O)[C@@H](CCN)NC(=O)[C@@H](CCCCNC(=O)[C@@H](Cc1ccccc1)NC(=O)[C@H](N)CCCN)NC(=O)[C@@H](Cc1ccccc1)NC(=O)[C@H](N)CCCN)NC(=O)[C@@H](CC(C)C)NC(=O)[C@@H](CCN)NC(=O)[C@@H](CCCCNC(=O)[C@@H](Cc1ccccc1)NC(=O)[C@H](N)CCCN)NC(=O)[C@@H](Cc1ccccc1)NC(=O)[C@H](N)CCCN)C(N)=O	broth microdilution	NCTC 418	37 °C	> 64 µg/mL
CCn1[c]([Au-][Cl])[n+](CC)c2ccc(C(=O)OC)cc21	broth dilution	DSM 11678	20 h, 37 °C	91.8 ± 39.7 µM
CCCCCC/C=C\CCCCCCC[C@@H](O)Cc1cc(O)cc(O)c1	microbial growth, broth dilution	ATCC10031		> 64 µg/mL
Oc1ccc(C(F)(F)F)cc1-c1nc2c(Br)cc(Br)cc2[nH]1		B9		25 µM
N#Cc1ccc2cccc(O)c2n1	microbial growth, agar dilution	ATCC700603		> 1500 µM

For quick reference, copied from above:
SMILES	test	test system	conditions	MIC
N#Cc1ccc2cccc(O)c2n1	microbial growth, agar dilution	ATCC700603		> 1500 µM
CO[C@@H](C(N)=O)[C@H](NC(=O)c1ccc(NC(=O)c2ccc([N+](=O)[O-])cc2)cc1)C(=O)Nc1ccc(C(=O)Nc2ccc(C(=O)Nc3ccc(C(=O)O)cc3)c(O)c2OC(C)C)cc1	microbial growth	DSM30104		> 64 µg/mL
